Assay results pooled from the literature.
Several values in a cell are separate wells, animals, samples, runs or records. Numbers after ± are the reported error.

CSCCNc1nc(SCCC(F)(F)F)nc2c1ncn2[C@@H]1O[C@H](COP(=O)(O)OP(=O)(O)C(Cl)(Cl)P(=O)(O)O)[C@@H](O)[C@H]1O — patients with high residual reactivity (platelet aggregation, light transmission aggregometry; human patients, platelet-rich plasma; dose not given, 30 min, aggregation above 46%, with: ADP 5 µM): 55%
CCc1c(C)nc(-c2ccc(Cl)s2)nc1Nc1ccc(CC(=O)O)cc1 — serum total bilirubin (mice, chronic ethanol plus binge; intraperitoneal, 0.3 mg/kg daily, ethanol diet 4 weeks, dosed last two; relative to: vehicle): no effect
CC(C)[C@H](C(=O)Nc1ccc(C(=O)NO)cc1)c1ccccc1 — speech discrimination (human, right ear; 9 months after treatment): 100%
C[C@H]1O[C@@H](O[C@H]2CC[C@@]3(C)[C@@H](CC[C@]4(C)[C@@H]3C=C[C@]35OC[C@@]6(CCC(C)(C)C[C@H]63)[C@@H](O)C[C@]54C)[C@]2(C)CO)[C@H](O)[C@@H](O[C@@H]2O[C@H](CO)[C@@H](O)[C@H](O)[C@H]2O)[C@H]1O — protein level (Western blot, refers to: PPARα; mice, normal control diet, liver; dose not given, high dose, unit not given; relative to: β-actin): 0.925 and 0.682 and 0.699
CC[C@H](C)[C@H](NC(=O)[C@H](C)NC(=O)CNC(=O)[C@H](Cc1ccccc1)NC(=O)[C@H](CC(N)=O)NC(=O)[C@H](CC(N)=O)NC(=O)[C@H](CO)NC(=O)[C@H](CO)NC(=O)[C@H](Cc1c[nH]cn1)NC(=O)[C@@H](NC(=O)[C@H](CC(C)C)NC(=O)[C@H](Cc1ccccc1)NC(=O)[C@H](CC(N)=O)NC(=O)[C@H](C)NC(=O)[C@H](CC(C)C)NC(=O)[C@H](CCCNC(=N)N)NC(=O)[C@H](CCC(N)=O)NC(=O)[C@@H](NC(=O)[C@H](C)NC(=O)[C@@H]1CSSC[C@H](NC(=O)[C@@H](N)CCCCN)C(=O)N[C@@H](CC(N)=O)C(=O)N[C@@H]([C@@H](C)O)C(=O)N[C@@H](C)C(=O)N[C@@H]([C@@H](C)O)C(=O)N1)[C@@H](C)O)C(C)C)C(=O)N[C@@H](CC(C)C)C(=O)N[C@@H](CO)C(=O)N[C@@H](CO)C(=O)N[C@H](C(=O)N[C@@H](CC(N)=O)C(=O)N[C@H](C(=O)NCC(=O)N[C@@H](CO)C(=O)N[C@@H](CC(N)=O)C(=O)N[C@H](C(=O)N[C@@H](Cc1ccc(O)cc1)C(N)=O)[C@@H](C)O)C(C)C)[C@@H](C)O — viability (live/dead staining; isolated mouse islets; 10 µM, 24 h): 60.4% and 56.8%
CN(C(=O)n1cnc(-c2ccc[n+]([O-])c2)c1)C1CCCCC1 — AUC(0-t) (refers to: PEA; human, plasma; 0.25 mg single dose): 158 ng·h/mL
N#Cc1ccc2c(c1)[C@H]1CCCN(C(=O)c3ccc4[nH]cnc4c3)[C@H]1C2 — change from baseline (refers to: Triglycerides; human; 20 mg once daily, day 28, adjusted mean; relative to: placebo): 11.5 mg/dL
c1ccc(-c2n[nH]cc2-c2ccnc3ccccc23)nc1 — log2 fold change (kinase binding, competitor, MIB/MS competition, refers to: CKA1; Candida albicans cell lysate; 100 nM; relative to: DMSO): 1.09
Cn1cc(Nc2nccc(-c3ccc4c(c3)CN(C3COC3)CC[C@H]4NC(=O)c3cn(C(C)(C)C)nn3)n2)cn1 — pathway activation z-score (refers to: NFAT in immune response; splenic B cells, mice; 30 mg/kg, IgD-activated in vivo; relative to: vehicle, direction not given): 3.9
COc1cccc2c(N3CCC(CCP(=O)(O)O)CC3)ncnc12 — cGAMP concentration (mouse, EMT6 tumour, serum; dose not given, below quantification limit): < 2 ng/mL
CCN(Cc1nc2c(N)nc3cc(-c4cc[nH]n4)ccc3c2[nH]1)C(C)=O — patients with increased cells (immunohistochemistry, refers to: MPO+ TANs; patients with advanced solid tumours, injected tumour lesions; dose not given, monotherapy): 45%
CN(C)C(=O)Oc1cccc([N+](C)(C)C)c1 — twitch response (rat cisatracurium-induced neuromuscular block; 0.04 mg/kg): 54.3% and 43.6% and 52.6% and 31.4%
COc1ccc(-n2nc(C(N)=O)c3c2C(=O)N(c2ccc(N4CCCCC4=O)cc2)CC3)cc1 — thrombin generation lag time (calibrated automated thrombogram; healthy dog, plasma; oral, 0.5 mg/kg every 12 h; relative to: baseline): increased
CC(C)NCC(O)c1ccc(O)c(O)c1 (stereo not shown) — sarcomere length (ventricular cardiomyocytes, C57BL/6 mouse; dose not given, 0.056 s): 1.72 µm
NC(=O)c1cnc2[nH]ccc2c1N[C@@H]1[C@@H]2CC3C[C@H]1C[C@@](O)(C3)C2 — CD4+ naive T-cell change (flow cytometry; Japanese healthy men, blood; oral, 10 mg twice daily, 72 h after day 7 dose; relative to: baseline): -4.38%
N#Cc1ccn2c(-c3ccncc3)c(-c3ccc(F)cc3)nc2c1 — log2 fold change (kinase binding, competitor, MIB/MS competition, refers to: SSK2; Candida albicans cell lysate; 1 µM; relative to: DMSO): 0.0698
O=C(O)CNC(=O)Cc1ccccc1 — sarcomere length (ventricular cardiomyocytes, C57BL/6 mouse; dose not given, 0.272 s): 1.67 µm
OC(CCN1CCCCC1)(c1ccccc1)C1CC2C=CC1C2 (stereo not shown) — EEG beta power, O2 Pz, change in (resting-state EEG; healthy elderly humans; oral, 2 mg, eyes closed, LS mean; relative to: baseline): -4.7%
Cc1oncc1C(=O)Nc1ccc(C(F)(F)F)cc1 — DHO concentration (refers to: dihydroorotate; female CD-1 mice, blood; oral, 10 mg/kg daily, 24 h after dose 10, 10-day dosing): 12.3 ± 4.26 µM
CCN1CCN(Cc2ccc(Nc3ncc(F)c(-c4cc(F)c5nc6n(c5c4)[C@H](C)CCC6)n3)nc2)CC1 — progressive disease (human advanced solid tumours; 100 mg, phase Ia monotherapy RECIST 1.1): 25%
C[C@H](Oc1ccc(Br)cc1-c1ccon1)C(=O)O — latency change (muscle velocity recovery cycles; human, tibialis anterior muscle; 400 mg once daily, multiple doses, 30 Hz train for 30 s; relative to: placebo): -1.79%
C[C@H](NC(=O)c1c(C(F)F)nn(C)c1Oc1cccc(C(F)(F)F)c1)c1ccc(C(=O)O)cc1 — partial response (irRECIST; human, advanced tumours; 750 mg; best overall response): 0%
Cn1cc(Nc2nc(N)nc(-c3cccc(-n4ccc5cc(C6CC6)cc(F)c5c4=O)c3CO)n2)cn1 — inhibition (CD63 upregulation, anti-IgE-induced; human, multiple ascending dose, whole blood basophils ex vivo; 300 mg twice daily, day 14, 4 h): 97.4%
Cc1cc(-c2nnc(N)nc2-c2ccc(F)cc2)cc(Cl)n1 — GSVA score change (NanoString, refers to: Canonical.STING.D.IO signature; human mCRPC, peripheral blood; dose not given, 2 or 4 weeks; relative to: baseline, direction not given): 0.131
CN[C@@H](C)C(=O)N[C@H]1CN(S(=O)(=O)c2cccc(S(=O)(=O)N3CC[C@H]4CC[C@@H](C(=O)NC(c5ccccc5)c5ccccc5)N4C(=O)[C@@H](NC(=O)[C@H](C)NC)C3)c2)CC[C@H]2CC[C@@H](C(=O)NC(c3ccccc3)c3ccccc3)N2C1=O — models with enhanced antitumour effect (mouse pancreatic cancer PDX models; dose not given, compound added): 50%
